Measured values of several laboratories.
Each line is one published result; not all experiments were run side by side. ± gives the spread as reported.
Oprd1: Delta-type opioid receptor (Oprd1, Rattus norvegicus, UniProt P33533)
CA1: Carbonic anhydrase 1 (CA1, Homo sapiens, UniProt P00915)
WDR5: WD repeat-containing protein 5 (WDR5, Homo sapiens, UniProt P61964)
ACHE: Acetylcholinesterase (ACHE, Homo sapiens, UniProt P22303)
HTR1D: 5-hydroxytryptamine receptor 1D (HTR1D, Homo sapiens, UniProt P28221)
DRD2 long isoform: D(2) dopamine receptor, long isoform (DRD2, Homo sapiens, UniProt P14416)
OPRK1: Kappa-type opioid receptor (OPRK1, Cavia porcellus, UniProt P41144)

| SMILES | target | assay | system | setting | Ki [nM] |
| --- | --- | --- | --- | --- | --- |
| Cc1cc(O)cc(C)c1CCC(=O)N[C@@H]1C/C=C/CC[C@@H](C(N)=O)NC(=O)[C@H](Cc2ccccc2)NC(=O)[C@H](Cc2ccccc2)NC1=O | Oprd1 | ligand displacement, radioligand |  | cell membranes | 27 |
| N[C@H]1CCOC1=O | CA1 | enzyme activity, inhibitor, stopped-flow |  |  | > 100000 |
| CN(C)[C@H](CNC(=O)/C=C/c1cccc2ccccc12)Cc1ccc(O)cc1 | Orexin receptor type 2 (HCRTR2, Homo sapiens, UniProt O43614) |  |  |  | > 50000 |
| CC[C@@H]1NC(=O)[C@H](CCCNC(=N)N)NC(=O)[C@H](NC(=O)C(C)C)CNC(=O)c2cc(F)c(c(F)c2)N=Nc2c(F)cc(cc2F)C(=O)NCCNC(=O)[C@@H](c2ccccc2)NC1=O | WDR5 | binding, inhibitor, competitive fluorescence polarization |  | cis isomer, 520 nm photostationary state | 79 |
| COc1c(C(C)C)cc2c(c1O)[C@@]1(C(=O)O)CCCC(C)(C)C1CC2 (stereo partly shown) | Cholinesterase (BCHE, Homo sapiens, UniProt P06276) | enzyme activity, inhibitor, absorbance |  |  | 1.27 |
| O=C(CCN1C=C/C(=C\c2sc3ccccc3[n+]2CCC(=O)NCCCCCCNc2c3c(nc4ccccc24)CCCC3)c2ccccc21)NCCCCCCNc1c2c(nc3ccccc13)CCCC2 | ACHE | enzyme activity, inhibitor, Ellman |  | pH 8 | 0.31 |
| COC1c2cc(C(C)C)c(O)c(O)c2C23CCCC(C)(C)C2C1OC3=O (stereo not shown) | ACHE | enzyme activity, inhibitor |  |  | 7.58 |
| COc1cc2c(cc1O)C(CCc1ccc(Cl)cc1)N(C)CC2 (stereo not shown) | HTR1D | cell-free assay, radioligand |  |  | 2700 |
| Cc1cc(O)cc(C)c1C[C@H](N)C(=O)N[C@@H]1CCCCC[C@@H](C(N)=O)NC(=O)[C@H](Cc2ccccc2)NC(=O)[C@H](Cc2ccccc2)NC1=O | Oprd1 | ligand displacement, radioligand |  | cell membranes | 1.2 |
| Cc1c(Cl)c(=O)oc2cc(OCCCCCC[Se]C#N)ccc12 | CA1 | enzyme activity, inhibitor, stopped-flow |  |  | > 100000 |
| Cc1cc(O)cc(C)c1C[C@H](N)C(=O)N[C@H](CCCNC(=N)N)C(=O)N[C@@H](Cc1ccccc1)C(=O)N(C)CC(=O)N(C)Cc1cc(C(F)(F)F)cc(C(F)(F)F)c1 | Delta-type opioid receptor (OPRD1, Homo sapiens, UniProt P41143, V217A) |  |  |  | 17.6 |
| O=S(=O)(N/N=C/c1ccc(OS(=O)(=O)c2cc(Cl)ccc2Cl)cc1)c1ccc(Cl)cc1 | CA1 | enzyme activity, inhibitor, absorbance |  |  | 179 |
| CN1CCN(c2cccc3c2ccn3Cc2ccccc2)CC1 | DRD2 long isoform | binding, radioligand displacement | HEK293 membranes | 1 h, 37 °C, added: [3H]-raclopride | 305 ± 26 |
| CC[C@@H]1NC(=O)[C@H](CCCNC(=N)N)NC(=O)[C@H](NC(=O)C(C)C)CCNC(=O)c2cc(F)c(c(F)c2)N=Nc2c(F)cc(cc2F)C(=O)NCCNC(=O)[C@@H](Cc2ccccc2)NC1=O | WDR5 | fluorescence polarization competition |  | trans PSS, irradiated 520 nm with WDR5 in situ | 6.53 ± 2.48 |
| Cc1cc(O)cc(C)c1CCC(=O)N[C@@H]1CCCCC[C@@H](C(N)=O)NC(=O)[C@H](Cc2ccccc2)NC(=O)[C@H](Cc2ccccc2)NC1=O | Oprd1 | ligand displacement, radioligand |  | cell membranes | 39.2 |
| CC[C@@H]1NC(=O)[C@H](CCCNC(=N)N)NC(=O)[C@H](NC(=O)C(C)C)CNC(=O)c2cc(F)c(c(F)c2)N=Nc2c(F)cc(cc2F)C(=O)NCCNC(=O)[C@@H](Cc2ccccc2)NC1=O | WDR5 | binding, inhibitor, competitive fluorescence polarization |  | trans isomer, 405 nm photostationary state | 448 |
| N=C(N)NCCC[C@@H]1NC(=O)[C@@H](Cc2ccc(O)cc2)NC(=O)[C@@H](CCCCN)NC(=O)[C@@H](Cc2ccccc2)NC1=O | OPRK1 | ligand displacement, radioligand |  | cell membranes | 389 |
| Cc1cc(O)cc(C)c1C[C@H](N)C(=O)N[C@@H]1C/C=C/CC[C@@H](C(N)=O)NC(=O)[C@H](Cc2ccccc2)NC(=O)[C@H](Cc2ccccc2)NC1=O | OPRK1 | ligand displacement, radioligand |  | cell membranes | 4.97 |
| COc1ccc(-n2nc3c4cc(Cl)ccc4[nH]cc-3c2=O)cc1 | Gabrg2/Gabra1, α1+/γ2− interface (Rattus norvegicus, UniProt P18508+P62813) |  | rat cerebellar membranes | added: [3H]flunitrazepam | 0.018 ± 0.004 |

| SMILES | target | assay | system | setting | Ki [nM] |
| --- | --- | --- | --- | --- | --- |
| C[C@@H](Cc1ccsc1)NC(=O)NC[C@H](Cc1ccc(O)cc1)N(C)C | D(2) dopamine receptor (DRD2, Homo sapiens, UniProt P14416) | cell-free assay |  |  | 25000 |
| O=S(=O)(N/N=C/c1ccc(OS(=O)(=O)c2ccccc2)cc1)c1cc(Cl)ccc1Cl | CA1 | enzyme activity, inhibitor, absorbance |  |  | 51.4 |
| C[C@@H](CN1CCC(Cc2ccccc2)CC1)[C@@H](O)c1ccc(O)cc1 | Sodium-dependent serotonin transporter (SLC6A4, Homo sapiens, UniProt P31645) | binding, inhibitor |  |  | 1420 |
| Cc1cc(O)cc(C)c1C[C@H](N)C(=O)N[C@H](CCCNC(=N)N)C(=O)N[C@@H](Cc1ccccc1)C(=O)N[C@@H](CCCCNC(=O)CN1CCN(CC(=O)O)CCN(CC(=O)O)CCN(CC(=O)O)CC1)C(N)=O | OPRK1 | ligand displacement, radioligand |  | cell membranes | 146 |
| CC[C@@H]1NC(=O)[C@H](CCCNC(=N)N)NC(=O)[C@H](NC(=O)C(C)C)CCCCNC(=O)c2cc(F)c(c(F)c2)N=Nc2c(F)cc(cc2F)C(=O)NCCNC(=O)[C@@H](c2ccccc2)NC1=O | WDR5 | binding, inhibitor, competitive fluorescence polarization |  | trans isomer, 405 nm photostationary state | 394 |
| O=S(=O)(N/N=C/c1ccc(OS(=O)(=O)c2cc(Cl)ccc2Cl)cc1)c1cc(Cl)ccc1Cl | CA1 | enzyme activity, inhibitor, absorbance |  |  | 26.7 |
| CC[C@@H]1NC(=O)[C@H](CCCNC(=N)N)NC(=O)[C@@H](C)NC(=O)c2cc(F)c(c(F)c2)N=Nc2c(F)cc(cc2F)C(=O)NCCNC(=O)[C@@H](Cc2ccccc2)NC1=O | WDR5 | binding, inhibitor, competitive fluorescence polarization |  | trans isomer, 405 nm photostationary state | 3350 |
| CCCCCn1ccc(C(=O)NC(C)(C)c2ccc(NC(C)=O)cc2)n1 | Cannabinoid receptor 1 (CNR1, Homo sapiens, UniProt P21554) | ligand displacement, radioligand |  |  | 1340 |
| O=S(=O)(N/N=C/c1ccc(OS(=O)(=O)c2ccc(Cl)cc2)cc1)c1ccc(Cl)cc1 | CA1 | enzyme activity, inhibitor, absorbance |  |  | 370 |
| Cc1cc(O)cc(C)c1C[C@H](N)C(=O)N[C@H](CCCNC(=N)N)C(=O)N[C@@H](Cc1ccccc1)C(=O)N[C@@H](CCCCN)C(=O)NCCNC(=O)[C@@H]1Cc2ccccc2CN1C(=O)[C@@H](N)Cc1c(C)cc(O)cc1C | Oprd1 | ligand displacement, radioligand |  | cell membranes | 1.74 |
| NC(=O)[C@@H]1CC/C=C\C[C@@H](NC(=O)[C@@H](N)Cc2ccc(O)cc2)C(=O)N[C@@H](Cc2ccccc2)C(=O)N[C@@H](Cc2ccccc2)C(=O)N1 | OPRK1 | ligand displacement, radioligand |  | cell membranes | 9.36 |
| COc1ccc2c(c1)c(CCN(C)C)cn2C(=O)c1ccccc1 | 5-hydroxytryptamine receptor 1A (HTR1A, Homo sapiens, UniProt P08908) | ligand displacement, radioligand |  | cell membranes | 686 |
| Cc1cc(O)cc(C)c1C[C@H](N)C(=O)N[C@H](CCCNC(=N)N)C(=O)N[C@@H](Cc1ccccc1)C(=O)N[C@@H](CCCCN)C(=O)NCCCCCC(=O)N[C@@H](CCCCNC(=O)CN1CCN(CC(=O)O)CCN(CC(=O)O)CCN(CC(=O)O)CC1)C(N)=O | OPRK1 |  | guinea pig |  | 66.1 ± 5.4 |
| O=C1c2ccccc2CCCN1CCCCN1CCN(c2cccc(Cl)c2Cl)CC1 | HTR1D | ligand displacement, radioligand |  |  | > 10000 |
| Cc1cc(O)cc(C)c1C[C@H](N)C(=O)N[C@H](CCCNC(=N)N)C(=O)N[C@@H](Cc1ccccc1)C(=O)N[C@@H](CCCCN)C(=O)NCCCCCCCCNC(=O)[C@H](Cc1ccccc1)NC(=O)[C@H](CC1CCCCC1)NC[C@@H]1Cc2ccccc2CN1C(=O)[C@@H](N)Cc1ccc(O)cc1 | Oprd1 | ligand displacement, radioligand |  | cell membranes | 7.32 |
| CC[C@@H]1NC(=O)[C@H](CCCNC(=N)N)NC(=O)[C@H](NC(=O)C(C)C)CCNC(=O)c2cc(F)c(c(F)c2)N=Nc2c(F)cc(cc2F)C(=O)NCCNC(=O)[C@@H](c2ccccc2)NC1=O | WDR5 | binding, inhibitor, competitive fluorescence polarization |  | trans isomer, 405 nm photostationary state | 51 |
| Cc1cc(O)cc(C)c1C[C@H](N)C(=O)N[C@H](CCCNC(=N)N)C(=O)N[C@@H](Cc1ccccc1)C(=O)N[C@@H](CCCCN)C(=O)N[C@H]1CC[C@H](NC(=O)[C@H](Cc2ccccc2)NC(=O)[C@H](CC2CCCCC2)NC[C@@H]2Cc3ccccc3CN2C(=O)[C@@H](N)Cc2ccc(O)cc2)CC1 | Oprd1 | ligand displacement, radioligand |  | cell membranes | 5.79 |
| COc1ccc2c(c1)c(CCN(C)C)cn2Cc1ccccc1 | DRD2 long isoform | binding, radioligand displacement | HEK293 membranes | 1 h, 37 °C, added: [3H]-raclopride | 327 ± 58 |
